# Published values from different studies.
# Each numbered part is a random draw from the data of one study; scales do not carry over between parts. Substitutions count along the parent as printed.

# Block 1 — method: DHFR PCA, deep sequencing; matrix: yeast; together with: (+)-ABA 58 µM; reference: wild-type fitted maximum; reading: higher = stronger binding
# Target: ABI1, truncated, D143A, DHFR fusion (Arabidopsis thaliana)
# Setting: methotrexate growth selection, single substitutions
# Starting sequence: PYL1, truncated, DHFR fusion (Arabidopsis thaliana); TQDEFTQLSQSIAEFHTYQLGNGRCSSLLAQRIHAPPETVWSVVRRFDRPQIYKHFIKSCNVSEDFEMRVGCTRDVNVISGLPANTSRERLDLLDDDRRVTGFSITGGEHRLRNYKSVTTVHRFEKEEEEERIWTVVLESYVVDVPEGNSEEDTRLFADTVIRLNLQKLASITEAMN
Variant,relative binding score [%]
E67P,74.1
W41Q,-18.8
L94W,86.9
E128N,99.3
L94A,13.9
P36W,50.4
A35V,49.2
L8F,91.3
N22D,95.5
Y115K,1.37
Q19V,90.2
L20R,91.7
R123N,89.5
K126W,73.6
D153N,37.8
D65S,82.2
T6A,96.5
R163N,63
D48T,22
T173R,4.07
D96R,6.81

# Block 2 — target: UBE2O UBC core domain (UniProt Q9C0C9); method: yeast two-hybrid; matrix: yeast; setting: mostly zero background; reference: not given; reading: higher = stronger interaction
# Sequence of UniProt Q9C0C9 (whole entry, looked up): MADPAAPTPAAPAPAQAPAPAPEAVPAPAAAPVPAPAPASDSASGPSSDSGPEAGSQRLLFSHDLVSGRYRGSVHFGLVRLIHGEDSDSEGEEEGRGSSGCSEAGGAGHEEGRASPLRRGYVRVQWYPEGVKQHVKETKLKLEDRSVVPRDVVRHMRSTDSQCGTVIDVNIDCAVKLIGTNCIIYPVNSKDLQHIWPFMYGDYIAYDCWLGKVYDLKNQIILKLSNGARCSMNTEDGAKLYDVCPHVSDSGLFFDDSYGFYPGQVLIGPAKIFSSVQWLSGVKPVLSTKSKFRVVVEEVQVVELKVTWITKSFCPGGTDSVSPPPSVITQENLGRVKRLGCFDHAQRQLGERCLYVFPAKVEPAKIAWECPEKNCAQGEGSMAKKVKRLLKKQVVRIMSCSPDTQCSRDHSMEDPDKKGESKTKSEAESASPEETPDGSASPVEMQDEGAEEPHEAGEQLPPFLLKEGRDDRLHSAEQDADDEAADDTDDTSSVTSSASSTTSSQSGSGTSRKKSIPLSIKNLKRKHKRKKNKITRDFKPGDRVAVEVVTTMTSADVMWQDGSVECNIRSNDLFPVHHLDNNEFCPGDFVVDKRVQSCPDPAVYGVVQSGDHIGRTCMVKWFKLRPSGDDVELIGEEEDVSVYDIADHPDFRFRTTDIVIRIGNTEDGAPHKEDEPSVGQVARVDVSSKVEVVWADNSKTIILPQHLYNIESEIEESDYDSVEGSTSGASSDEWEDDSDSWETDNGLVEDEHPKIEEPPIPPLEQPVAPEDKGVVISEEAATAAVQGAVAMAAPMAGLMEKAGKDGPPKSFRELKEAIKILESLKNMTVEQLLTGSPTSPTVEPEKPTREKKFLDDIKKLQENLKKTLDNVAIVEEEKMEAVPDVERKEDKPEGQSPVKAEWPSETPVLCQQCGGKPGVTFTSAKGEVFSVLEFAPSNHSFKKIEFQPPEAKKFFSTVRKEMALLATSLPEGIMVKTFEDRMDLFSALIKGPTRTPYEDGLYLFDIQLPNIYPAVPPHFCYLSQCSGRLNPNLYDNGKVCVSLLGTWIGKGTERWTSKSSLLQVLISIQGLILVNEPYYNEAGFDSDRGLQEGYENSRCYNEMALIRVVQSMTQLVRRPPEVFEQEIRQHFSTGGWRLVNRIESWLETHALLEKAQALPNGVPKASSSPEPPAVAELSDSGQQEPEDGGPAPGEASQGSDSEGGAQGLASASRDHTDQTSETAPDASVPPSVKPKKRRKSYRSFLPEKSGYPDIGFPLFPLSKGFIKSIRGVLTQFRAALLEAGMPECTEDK
# B1: RNF152 RING domain (UniProt Q8N8N0); chain ETLSQDSLLECQICFNYYSPRRRPKLLDCKHTCCSVCLQQMRTSQKDVRCPWCRGVTKLPPGFS
# B2: DEF8 RING domain (UniProt Q6ZN54); chain AGRLGCSLTEIHTLFAKHIKLDCERCQAKGFVCELCREGDVLFPFDSHTSVCADCSAVFHRDCYYDNSTTCPKCARLSLRK
# B3: MYCBP2 RING domain (UniProt O75592); chain TSLKQDADDMCMICFTEALSAAPAIQLDCSHIFHLQCCRRVLENRWLGPRITFGFISCPICKNKINHIVLKD
Molecule,lacZ reporter activity
B1 (RNF152 RING domain),0
AEADPLGRFTCPVCLEVYEKPVQVPCGHVFCSACLQECLKPKKPVCGVCRSALAPGVRAV (RNF114 RING domain (UniProt Q9Y508)),0
B2 (DEF8 RING domain),0
QVQSRTKIEECVVCSDKKAAVLFQPCGHMCACENCANLMKKCVQCRAVVERRVPFI (MIB1 RING domain (UniProt Q86YT6)),0
B3 (MYCBP2 RING domain),0
RYRQMEERITCPICIDSHIRLVFQCGHGACAPCGSALSACPICRQPIRDRIQIF (MIB2 RING domain (UniProt Q96AX9)),0
YCEMGSTFQLCKICAENDKDVKIEPCGHLMCTSCLTAWQESDGQGCPFCRCEIKGTEPII (CBLB RING domain (UniProt Q13191)),0
YPEEVDDDLICHICLQALLDPLDTPCGHTYCTLCLTNFLVEKDFCPMDRKPLVLQHCKK (LNX1 RING domain (UniProt Q8TBB1)),0

# Block 3 — method: protein binding microarray; molecule type: double-stranded DNA, one strand shown; matrix: in vitro; tested at: not given; reference: not given; reading: higher = stronger binding
# Target: Histone acetyltransferase KAT6A, winged helix 1, GST fusion (KAT6A, Homo sapiens, UniProt Q92794, residues 1-85)
# Setting: 8-mer, flanks averaged, mean of 2 arrays, mostly near background
# Residues (chain): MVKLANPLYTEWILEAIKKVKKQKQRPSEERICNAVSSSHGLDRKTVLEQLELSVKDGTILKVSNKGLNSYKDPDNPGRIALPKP
Sequence,E-score
AGGCGCAG,0.0757
CTGAAGGC,-0.129
AGAATTGG,-0.271
AATCAGTC,-0.121
CAGTCTCA,-0.127
ACACAATG,-0.319
CCGGTGAG,0.0992
CCATTGCG,0.149
AGCACACG,0.00509
GACAATTA,0.0111
GTCCCGAA,0.0113
CGCTTGAG,0.105
TCCAGCAA,-0.337
ACTTCGAA,-0.265
TGAAGGCA,-0.236
GGGATGTA,0.0488
AAAGGTAG,-0.00162
TCGGCAAA,0.116
AACTGCGC,0.234
GCTTCGTA,-0.06
GCCGTGCC,0.383
ACACTACC,0.0229
CCCTAGGG,-0.217
CTACCATA,-0.125
CATTTTGA,-0.225

# Block 4 — target: CCNE2, cyclin fold, Cln2 fusion (human); method: yeast growth competition, sequencing; matrix: yeast; setting: strong parent motif; reference: not given; reading: higher = stronger binding
# Starting sequence: INSM1 docking peptide (human); PKAIRKLHFEDEV; partner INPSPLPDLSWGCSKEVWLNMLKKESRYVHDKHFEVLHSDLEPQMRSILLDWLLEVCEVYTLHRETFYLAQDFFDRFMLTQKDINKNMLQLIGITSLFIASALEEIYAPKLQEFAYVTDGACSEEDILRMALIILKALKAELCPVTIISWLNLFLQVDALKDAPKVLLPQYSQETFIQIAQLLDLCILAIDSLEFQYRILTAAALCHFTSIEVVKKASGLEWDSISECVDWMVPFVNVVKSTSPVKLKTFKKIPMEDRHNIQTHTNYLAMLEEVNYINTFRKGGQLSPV
Variant,normalised enrichment score
E12W,1.89
L7V,0.203
A3Y,1.29
H8M,1.3
K6N,0.462
A3C,2.07
K6C,0.554
I4D,-0.0596
R5F,0.391
R5E,-0.129
I4C,2.81
H8N,2.17
E10N,1.79
I4K,2.79
E12G,1.77
L7D,-0.0103
E12F,2.15
K2C,1.63

# Repeated from above (block 4):
Variant,normalised enrichment score
A3Y,1.29
H8M,1.3
K6N,0.462
A3C,2.07
K6C,0.554
I4D,-0.0596
R5F,0.391
R5E,-0.129
I4C,2.81
H8N,2.17
E10N,1.79
